Measurements collected from several papers.
Compare with care: the assays were run in different laboratories.
Medium: plasma

SMILES | assay | system | conditions | how to read | endpoint | value
C=CC(=O)NC1CCN(c2ncc3ncnc(Nc4ccc(Oc5ccc6c(c5)ncn6C)c(C)c4)c3n2)CC1 |  | healthy male volunteers | oral solution, 60 mg | relative to: compound over total radioactivity | Cmax ratio | 0.804
CNC(=O)c1cc(Oc2ccc(NC(=O)N(c3ccc(Cl)c(C(F)(F)F)c3)[C@@H]3O[C@H](C(=O)O)[C@@H](O)[C@H](O)[C@H]3O)cc2)ccn1 |  | patients | oral, geometric mean, together with: rifampin | relative to: with rifampin over without rifampin | Cmax ratio | 2.1
N[C@@H]1c2ccccc2OC12CCN(c1cnc3c(N4CCCc5ncccc54)n[nH]c3n1)CC2 |  | advanced metastatic solid tumour patients | oral, 10 mg once daily, cycle 1 day 15, geometric mean |  | Cmax | 150 ng/mL
N#CCNC(=O)c1ccc(-c2ccnc(Nc3ccc(N4CCOCC4)cc3)n2)cc1 |  | healthy volunteers | oral, dose not given, together with: rifampin single-dose | relative to: compound alone | Cmax increase | 40%
FC(F)(F)c1ccc(CNc2ccc(Cc3c[nH]c4ncc(Cl)cc34)cn2)cn1 |  | healthy volunteers | oral, 600 mg, together with: rifampin | relative to: with rifampin over alone | Cmax ratio | 0.67
CNC(=O)c1cc(Oc2ccc(NC(=O)Nc3ccc(Cl)c(C(F)(F)F)c3)cc2)cc[n+]1[O-] |  | patients | oral, geometric mean, together with: rifampin | relative to: with rifampin over without rifampin | Cmax ratio | 1.59
N#CCNC(=O)c1ccc(-c2ccnc(Nc3ccc(N4CCOCC4=O)cc3)n2)cc1 |  | healthy volunteers | dose not given, together with: rifampin multiple-dose | relative to: with rifampin over alone | Cmax geometric mean ratio | 139%
O=C(c1cccnc1-c1ccncc1)N1CCC(O)(Cc2ccccc2)CC1 |  | healthy Japanese adults | oral, 100 mg twice daily, day 7 |  | Cmax | 204 ng/mL
NC(=O)c1[nH]cnc1N |  | leiomyosarcoma patients | intravenous, dose not given, cycle 2 day 1, together with: dacarbazine staggered | relative to: cycle 1 day 1 | Cmax increase | 69.4%
COc1ccc([C@@H](O)c2cc(-c3ncnc4cc(N5CCOCC5)ccc34)c(F)cc2Cl)nn1 | mixed model | healthy volunteers | oral, 100 mg, fasted oral suspension test arm |  | Cmax geometric LS mean | 480 ng/mL

A few entries again:
SMILES | assay | system | conditions | how to read | endpoint | value
N[C@@H]1c2ccccc2OC12CCN(c1cnc3c(N4CCCc5ncccc54)n[nH]c3n1)CC2 |  | advanced metastatic solid tumour patients | oral, 10 mg once daily, cycle 1 day 15, geometric mean |  | Cmax | 150 ng/mL
